{"data": "Measured values pooled from the literature"}
{"Structure (SMILES)": "C[C@H](NC(=O)c1c(C(F)F)nn(C)c1Oc1cccc(C(F)(F)F)c1)c1ccc(C(=O)O)cc1", "system": "human, plasma", "setting": "500 mg, cycle 1 day 8, mean", "Cmax [ng/mL]": 1520}
{"Structure (SMILES)": "N.N.O=C([O-])C1(C(=O)[O-])CCC1.[Pt+2]", "assay": "ICP-MS platinum, refers to: platinum", "system": "human patients, plasma ultrafiltrate", "setting": "dose not given, carboplatin target AUC 4, cycle 1 day 1", "Cmax [ng/mL]": 40000}
{"Structure (SMILES)": "O=c1ccc2ncc(=O)n3c2n1C[C@H]3CN1CCC(NCc2cc3c(cn2)OCCC3)CC1", "system": "healthy human volunteers, plasma", "setting": "oral, dose not given, arithmetic mean, added: itraconazole", "Cmax [ng/mL]": 5750}
{"Structure (SMILES)": "O[C@H]1CCCN[C@@H]1CCCn1cnc2c(Cl)c(Cl)ccc21", "system": "human, UGT2B7 ND+DD phenotype, plasma", "setting": "oral, 150 mg twice daily, steady state", "Cmax [ng/mL]": 284}
{"Structure (SMILES)": "N.N.O=C([O-])C1(C(=O)[O-])CCC1.[Pt+2]", "assay": "refers to: non-protein-bound platinum", "system": "human, plasma ultrafiltrate", "setting": "dose not given, median", "Cmax [ng/mL]": 15100}
{"Structure (SMILES)": "CC(=O)c1c(C)c2cnc(Nc3ccc(C4CCN(CCS(C)(=O)=O)CC4)cn3)nc2n(C2CCCC2)c1=O", "system": "human patients, plasma", "setting": "oral, 100 mg twice daily, day 1 single dose, added: fulvestrant", "Cmax [ng/mL]": 227}
{"Structure (SMILES)": "Cn1ncc(-c2nc(N[C@H]3CC[C@H](N)CC3)ncc2Cl)c1CC1CC1", "system": "human patients, plasma", "setting": "oral, 42 mg, day 5", "Cmax [ng/mL]": 155}
{"Structure (SMILES)": "OCc1ncc2n1-c1ccc(Cl)cc1C(c1ccccc1F)=NC2", "system": "human, plasma", "setting": "oral, 7.5 mg of midazolam, day 19, arithmetic mean, no amenamevir", "Cmax [ng/mL]": 15.8}
{"note": "Repeated from above:"}
{"Structure (SMILES)": "Cn1ncc(-c2nc(N[C@H]3CC[C@H](N)CC3)ncc2Cl)c1CC1CC1", "system": "human patients, plasma", "setting": "oral, 42 mg, day 5", "Cmax [ng/mL]": 155}
